Measurements of several laboratories.
Compare with care: the assays were run in different laboratories. ± marks the error that the study gave.

| Molecule | tested on | assay | test system | setting | how to read | measurement | result |
| --- | --- | --- | --- | --- | --- | --- | --- |
| rhodiosin | Replicase polyprotein 1ab, main protease (rep, Severe acute respiratory syndrome coronavirus 2, UniProt P0DTD1) | microscale thermophoresis | – | no preincubation | – | Kd | 1720 nM |
| maraviroc | HEK-293T/ACE2 | – | – | concentration not given | baseline: vehicle | nuclei number | 98.5% |
| cbh (Clostridium perfringens, UniProt P54965) | C[C@H](CCC(=O)N[C@@H](Cc1ccc(O)cc1)C(=O)O)[C@H]1CC[C@H]2[C@@H]3[C@H](O)C[C@@H]4C[C@H](O)CC[C@]4(C)[C@H]3C[C@H](O)[C@]12C | steady-state kinetics | – | pH 6.2, 37 °C | – | kcat/Km | 113 ± 5 M⁻¹ s⁻¹ |
| dmhA S134A (Campylobacter jejuni) | Nc1nc2c(ncn2[C@@H]2O[C@H](COP(=O)(O)OP(=O)(O)O[C@H]3O[C@H]([C@H](O)CO)[C@@H](O)[C@H](O)[C@@H]3O)[C@@H](O)[C@H]2O)c(=O)[nH]1 | steady-state kinetics | – | pH 7.5, 30 °C | – | kcat/Km | 8800 ± 300 M⁻¹ s⁻¹ |
| Rv1045 (Mycobacterium tuberculosis, UniProt P96356) | O=c1ccn([C@@H]2O[C@H](COP(=O)(O)OP(=O)(O)OP(=O)(O)O)[C@@H](O)[C@H]2O)c(=O)[nH]1 | steady-state kinetics | – | pH 8.5, 37 °C | – | Km | 874 µM |
| CD4 soluble (UniProt P01730) | env gp120 H66A (HIV-1 YU2) | HIV-1 neutralization, neutraliser | Cf2Th-CD4/CCR5 | added: soluble CD4 | – | IC90 | 200 nM |
| dmhA T187A (Campylobacter jejuni) | Nc1nc2c(ncn2[C@@H]2O[C@H](COP(=O)(O)OP(=O)(O)O[C@H]3O[C@H]([C@H](O)CO)[C@@H](O)[C@H](O)[C@@H]3O)[C@@H](O)[C@H]2O)c(=O)[nH]1 | steady-state kinetics | – | pH 7.5, 30 °C | – | kcat | 0.33 ± 0.004 s⁻¹ |

Excerpt of the above:
| Molecule | tested on | assay | test system | setting | how to read | measurement | result |
| --- | --- | --- | --- | --- | --- | --- | --- |
| dmhA S134A (Campylobacter jejuni) | Nc1nc2c(ncn2[C@@H]2O[C@H](COP(=O)(O)OP(=O)(O)O[C@H]3O[C@H]([C@H](O)CO)[C@@H](O)[C@H](O)[C@@H]3O)[C@@H](O)[C@H]2O)c(=O)[nH]1 | steady-state kinetics | – | pH 7.5, 30 °C | – | kcat/Km | 8800 ± 300 M⁻¹ s⁻¹ |
